Measurements gathered from unrelated publications.
Numbered parts are unrelated; each lists some results of a single study.
Sequence of UniProt P49685 (whole entry, looked up): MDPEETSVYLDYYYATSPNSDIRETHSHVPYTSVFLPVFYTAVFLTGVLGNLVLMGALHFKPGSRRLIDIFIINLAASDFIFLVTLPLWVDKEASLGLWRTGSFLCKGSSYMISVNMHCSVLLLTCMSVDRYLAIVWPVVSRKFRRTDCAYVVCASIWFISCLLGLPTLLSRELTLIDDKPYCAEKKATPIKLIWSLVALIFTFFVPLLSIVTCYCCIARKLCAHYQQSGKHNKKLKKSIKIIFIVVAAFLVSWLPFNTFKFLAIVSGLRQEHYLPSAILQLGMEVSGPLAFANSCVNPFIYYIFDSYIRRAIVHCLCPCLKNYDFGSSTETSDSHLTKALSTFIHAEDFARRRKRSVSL
Sequence of UniProt P48546 (whole entry, looked up): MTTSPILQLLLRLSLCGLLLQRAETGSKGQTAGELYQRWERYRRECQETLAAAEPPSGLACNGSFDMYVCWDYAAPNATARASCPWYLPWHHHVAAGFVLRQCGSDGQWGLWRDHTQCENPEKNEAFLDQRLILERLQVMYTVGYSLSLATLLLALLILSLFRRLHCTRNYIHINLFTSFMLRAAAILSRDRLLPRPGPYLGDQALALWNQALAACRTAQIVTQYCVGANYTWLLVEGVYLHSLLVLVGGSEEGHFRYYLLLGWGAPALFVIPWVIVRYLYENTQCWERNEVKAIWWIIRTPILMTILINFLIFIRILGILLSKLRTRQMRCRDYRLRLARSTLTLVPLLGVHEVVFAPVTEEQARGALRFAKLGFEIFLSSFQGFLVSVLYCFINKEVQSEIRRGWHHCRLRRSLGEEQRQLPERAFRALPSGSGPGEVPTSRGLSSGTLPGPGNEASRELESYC
Sequence of UniProt Q14012 (whole entry, looked up): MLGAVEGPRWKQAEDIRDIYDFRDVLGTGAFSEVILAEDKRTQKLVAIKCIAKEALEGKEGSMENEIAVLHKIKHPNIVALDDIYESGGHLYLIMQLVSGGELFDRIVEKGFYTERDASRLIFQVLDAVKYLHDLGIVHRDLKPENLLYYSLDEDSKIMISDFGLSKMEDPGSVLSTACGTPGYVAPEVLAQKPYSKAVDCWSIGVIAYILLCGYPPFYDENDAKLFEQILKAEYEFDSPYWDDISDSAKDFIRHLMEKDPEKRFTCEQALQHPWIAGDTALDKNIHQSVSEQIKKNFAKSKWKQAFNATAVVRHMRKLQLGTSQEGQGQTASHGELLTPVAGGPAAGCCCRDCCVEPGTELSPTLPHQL
Sequence of UniProt O14730 (whole entry, looked up): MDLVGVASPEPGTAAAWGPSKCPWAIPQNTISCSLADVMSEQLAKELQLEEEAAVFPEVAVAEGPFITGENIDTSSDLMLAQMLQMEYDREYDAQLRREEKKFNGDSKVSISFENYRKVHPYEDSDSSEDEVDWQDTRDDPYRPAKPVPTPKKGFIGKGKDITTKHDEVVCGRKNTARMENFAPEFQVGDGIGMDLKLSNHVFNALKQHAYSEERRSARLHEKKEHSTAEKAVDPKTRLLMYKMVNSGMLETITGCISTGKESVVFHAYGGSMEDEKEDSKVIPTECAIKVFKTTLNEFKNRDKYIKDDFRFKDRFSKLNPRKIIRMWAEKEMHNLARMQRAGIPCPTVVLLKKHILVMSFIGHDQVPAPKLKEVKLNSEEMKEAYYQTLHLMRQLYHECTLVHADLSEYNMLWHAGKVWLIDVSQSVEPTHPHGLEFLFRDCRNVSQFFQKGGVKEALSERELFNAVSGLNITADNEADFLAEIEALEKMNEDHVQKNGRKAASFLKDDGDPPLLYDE
Sequence of UniProt P51812 (whole entry, looked up): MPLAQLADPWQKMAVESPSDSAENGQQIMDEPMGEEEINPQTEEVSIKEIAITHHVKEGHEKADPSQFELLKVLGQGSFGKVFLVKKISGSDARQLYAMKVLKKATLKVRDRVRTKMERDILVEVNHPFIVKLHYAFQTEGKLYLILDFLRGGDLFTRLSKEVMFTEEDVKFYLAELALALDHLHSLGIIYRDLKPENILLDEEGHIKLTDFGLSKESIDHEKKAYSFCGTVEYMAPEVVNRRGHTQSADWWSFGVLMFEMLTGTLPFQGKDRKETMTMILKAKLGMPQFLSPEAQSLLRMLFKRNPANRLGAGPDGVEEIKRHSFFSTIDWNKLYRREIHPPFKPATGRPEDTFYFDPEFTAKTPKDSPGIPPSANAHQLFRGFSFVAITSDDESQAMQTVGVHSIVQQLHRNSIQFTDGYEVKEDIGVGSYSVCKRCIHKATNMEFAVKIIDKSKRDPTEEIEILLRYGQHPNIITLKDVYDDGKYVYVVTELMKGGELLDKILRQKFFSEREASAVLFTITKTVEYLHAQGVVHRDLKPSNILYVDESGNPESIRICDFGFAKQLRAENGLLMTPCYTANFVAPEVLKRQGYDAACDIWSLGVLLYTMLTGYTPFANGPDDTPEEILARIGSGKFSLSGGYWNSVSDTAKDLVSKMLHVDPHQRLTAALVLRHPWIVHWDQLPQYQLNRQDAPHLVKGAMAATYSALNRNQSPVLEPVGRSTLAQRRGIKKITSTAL
Sequence of UniProt Q8TDU6 (whole entry, looked up): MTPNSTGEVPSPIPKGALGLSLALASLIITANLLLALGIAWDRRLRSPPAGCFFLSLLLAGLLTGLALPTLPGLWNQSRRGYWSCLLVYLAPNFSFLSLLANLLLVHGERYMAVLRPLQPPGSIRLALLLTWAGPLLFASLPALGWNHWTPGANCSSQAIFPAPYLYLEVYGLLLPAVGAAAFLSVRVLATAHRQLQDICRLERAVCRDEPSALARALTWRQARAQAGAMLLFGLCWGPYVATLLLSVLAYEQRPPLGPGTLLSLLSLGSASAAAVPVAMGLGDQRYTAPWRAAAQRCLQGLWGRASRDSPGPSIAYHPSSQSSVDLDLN
Sequence of UniProt P52333 (whole entry, looked up): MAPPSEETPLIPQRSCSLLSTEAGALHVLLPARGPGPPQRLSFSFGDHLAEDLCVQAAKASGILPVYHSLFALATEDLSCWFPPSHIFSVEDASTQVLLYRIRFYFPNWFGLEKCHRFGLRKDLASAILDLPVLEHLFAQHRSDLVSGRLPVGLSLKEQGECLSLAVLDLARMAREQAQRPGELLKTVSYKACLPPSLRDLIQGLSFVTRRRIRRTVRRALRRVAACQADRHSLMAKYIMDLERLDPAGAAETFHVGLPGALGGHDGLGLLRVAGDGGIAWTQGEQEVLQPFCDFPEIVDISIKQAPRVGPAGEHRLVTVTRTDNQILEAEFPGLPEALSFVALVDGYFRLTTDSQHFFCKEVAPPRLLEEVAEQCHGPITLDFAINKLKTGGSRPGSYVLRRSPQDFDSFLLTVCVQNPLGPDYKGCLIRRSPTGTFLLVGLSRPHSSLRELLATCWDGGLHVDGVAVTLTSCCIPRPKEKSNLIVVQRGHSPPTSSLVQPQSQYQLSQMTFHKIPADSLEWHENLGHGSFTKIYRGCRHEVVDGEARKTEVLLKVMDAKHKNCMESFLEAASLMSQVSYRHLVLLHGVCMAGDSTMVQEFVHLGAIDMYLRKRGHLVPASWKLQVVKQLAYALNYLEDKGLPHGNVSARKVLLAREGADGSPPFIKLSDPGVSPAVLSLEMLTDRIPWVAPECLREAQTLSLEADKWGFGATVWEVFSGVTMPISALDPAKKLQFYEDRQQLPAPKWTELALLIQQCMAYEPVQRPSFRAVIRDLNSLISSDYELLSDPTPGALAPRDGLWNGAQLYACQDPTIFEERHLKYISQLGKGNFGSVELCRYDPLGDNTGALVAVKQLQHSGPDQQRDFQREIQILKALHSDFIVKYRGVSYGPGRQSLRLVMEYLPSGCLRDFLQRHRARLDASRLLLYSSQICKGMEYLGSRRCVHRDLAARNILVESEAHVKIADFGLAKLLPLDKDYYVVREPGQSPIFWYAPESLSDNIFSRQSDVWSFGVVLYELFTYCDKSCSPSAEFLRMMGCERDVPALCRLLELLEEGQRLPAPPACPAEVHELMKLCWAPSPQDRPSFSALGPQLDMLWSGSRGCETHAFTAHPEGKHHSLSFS
Sequence of UniProt P78356 (whole entry, looked up): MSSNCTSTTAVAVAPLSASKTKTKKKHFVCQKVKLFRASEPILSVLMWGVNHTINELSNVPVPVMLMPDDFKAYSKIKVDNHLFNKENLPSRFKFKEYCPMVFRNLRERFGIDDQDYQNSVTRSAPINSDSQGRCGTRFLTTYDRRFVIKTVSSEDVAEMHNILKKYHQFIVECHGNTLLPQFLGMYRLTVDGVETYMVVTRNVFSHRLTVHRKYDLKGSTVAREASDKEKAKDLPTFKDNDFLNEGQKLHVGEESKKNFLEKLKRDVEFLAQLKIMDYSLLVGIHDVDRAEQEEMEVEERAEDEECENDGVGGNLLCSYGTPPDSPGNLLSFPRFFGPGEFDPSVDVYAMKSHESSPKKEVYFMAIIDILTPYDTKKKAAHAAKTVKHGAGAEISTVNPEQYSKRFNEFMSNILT

Sample 1
Technique: PRP chromatography
Setting: linear fit, 1 mL
Quantity: logD 1,9-decadiene/water
CC(C)C[C@@H]1NC(=O)[C@H](CC(C)C)NC(=O)[C@@H](CC(C)C)NC(=O)[C@H](C)NC(=O)[C@@H](Cc2cscn2)NC(=O)[C@@H](CC(C)C)NC(=O)[C@H](C)NC1=O: -1.21 log units
CC(C)C[C@@H]1NC(=O)[C@@H](C)NC(=O)[C@@H](CC(C)C)NC(=O)[C@H](C)NC(=O)[C@H](C(C)C)NC(=O)[C@H](CC(C)C)NC(=O)[C@@H](CC(C)C)NC1=O: -0.77 log units
CC(C)C[C@@H]1NC(=O)[C@@H](C)NC(=O)[C@@H](CC(C)C)NC(=O)[C@@H](CC(C)C)NC(=O)[C@H](C)NC(=O)[C@H](CC(C)C)NC(=O)[C@@H](CC(C)C)NC1=O: -0.0786 log units
CC(C)C[C@@H]1NC(=O)[C@H](C)NC(=O)[C@H](CCC(=O)N2CCCC2)NC(=O)[C@H](CCC(=O)N2CCCC2)NC(=O)[C@@H](CCC(=O)N2CCCC2)NC(=O)[C@H](CC(C)C)NC(=O)[C@@H](CC(C)C)NC1=O: -4.9 log units
CC(C)C[C@@H]1NC(=O)[C@H](Cc2cscn2)NC(=O)[C@H](C)NC(=O)[C@@H](CC(C)C)NC(=O)[C@@H](CCC(=O)N2CCCC2)NC(=O)[C@H](CC(C)C)NC(=O)[C@@H](CC(C)C)NC1=O: -0.765 log units
CC(C)C[C@@H]1NC(=O)[C@H](Cc2cscn2)NC(=O)[C@H](Cc2cscn2)NC(=O)[C@H](CC(C)C)NC(=O)[C@@H](CCC(=O)N2CCCC2)NC(=O)[C@H](CC(C)C)NC(=O)[C@@H](CC(C)C)NC1=O: -0.93 log units
CC(C)C[C@@H]1NC(=O)[C@H](CC(C)C)NC(=O)[C@H](CC(C)C)NC(=O)[C@H](C(C)C)NC(=O)[C@@H](CCC(=O)N2CCCC2)NC(=O)[C@H](C)NC(=O)[C@H](C)NC1=O: -2.32 log units

Sample 2
Target: Calcium/calmodulin-dependent protein kinase type 1D (CAMK1D, Homo sapiens, UniProt Q8IU85)
Sequence of UniProt Q8IU85 (whole entry, looked up): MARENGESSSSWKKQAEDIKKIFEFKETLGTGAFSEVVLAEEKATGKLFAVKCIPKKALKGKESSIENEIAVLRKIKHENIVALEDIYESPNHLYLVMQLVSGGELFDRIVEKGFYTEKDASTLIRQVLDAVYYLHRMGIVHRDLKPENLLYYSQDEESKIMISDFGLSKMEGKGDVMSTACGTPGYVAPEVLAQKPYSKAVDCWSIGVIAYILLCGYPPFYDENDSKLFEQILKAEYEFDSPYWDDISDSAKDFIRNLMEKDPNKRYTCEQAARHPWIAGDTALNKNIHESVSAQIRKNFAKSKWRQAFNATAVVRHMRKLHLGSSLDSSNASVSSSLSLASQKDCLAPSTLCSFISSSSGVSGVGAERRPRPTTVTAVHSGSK
Read-out: enzyme activity
Action: inhibitor
Concentration: 0.5 µM
Relative to: control
Quantity: remaining activity
CCN(CC)CCCCN1c2ccccc2Oc2ccc(Cl)cc21: 107%
FC(F)(F)c1ccc(/C=C/c2nc(COc3ccc(CCCCn4ccnn4)cc3)co2)cc1: 109%
O=C1NC(=O)/C(=C/c2ccc3c(c2)OC(F)(F)O3)S1: 83.2%
O=C(O)/C=C/c1cc(Br)c(Br)c(Br)c1Br: 98.1%
CN(C)S(=O)(=O)c1ccc2c(c1)/C(=C/c1cc3c([nH]1)CCCC3)C(=O)N2: 99.8%
COc1cc2c(Nc3ccc(Br)cc3F)ncnc2cc1OCC1CCN(C)CC1: 90.6%
Clc1ccc(Nc2nnc(Cc3ccncc3)c3ccccc23)cc1: 108%
CNc1cc2c(Nc3cccc(Br)c3)ncnc2cn1: 92.5%
N#C/C(=C(/N)SC1C=CC=CC1)c1cccc(C(O)c2ccncc2)c1 (stereo not shown): 92%
COc1ccc(COc2ccc(Cc3cnc(N)nc3N)cc2OC)cc1: 93%
COc1cccc(-c2cc(=O)c3ccccc3o2)c1N: 65.3%
N#Cc1cnc2cnc(NCc3cccnc3)cc2c1Nc1ccc(F)c(Cl)c1: 97.8%
O=c1c(-c2ccc(F)cc2)c(-c2ccncc2)[nH]n1-c1ccc(Cl)cc1: 72.2%
COc1ccc2c(c1)c(C1=C(c3c[nH]c4ccccc34)C(=O)NC1=O)cn2CCCN(C)C: 73.3%
O=C1NC(=O)c2c1c1c3ccccc3[nH]c1c1[nH]c3cc(Br)ccc3c21: 92.2%
CCCNC(=O)Nc1ccc(Oc2ncnc3cc(OC)c(OC)cc23)cc1Cl: 96.8%
CC(C)n1cnc2c(Nc3cccc(Cl)c3)nc(NCCO)nc21: 98.1%
COc1cc2c(N3CCN(C(=O)Nc4ccc(OC(C)C)cc4)CC3)ncnc2cc1OCCCN1CCCCC1: 110%
CN1CCN(c2ccc3nc(-c4c(N)c5c(F)cccc5[nH]c4=O)[nH]c3c2)CC1: 103%
O=c1cc(N2CCOCC2)oc2c(-c3ccccc3)cccc12: 47.9%
c1ccc(-c2n[nH]c3c2oc2ccccc23)cc1: 92.9%
CCCCc1c(-c2ccc(OC)cc2)[nH]c2nccnc12: 97.9%
NC(=O)c1cccc(-c2cc(Nc3ccc(OC(F)(F)F)cc3)ncn2)c1: 105%
Oc1cccc(-c2nc(N3CCOCC3)c3oc4ncccc4c3n2)c1: 121%
CCCCc1c(-c2ccc(O)cc2)[nH]c2nccnc12: 96.9%

Sample 3
Structure (SMILES): CN(C)c1ncnc(-c2ccc3nc(Nc4cc(CN5CCN(C(=O)CC(F)(F)F)CC5)ccn4)[nH]c3c2)c1Cl
Concentration: 1 µM
Quantity: remaining binding
PIP4K2B (Homo sapiens, UniProt P78356); cell-free assay, competition with immobilised ligand: 52%
Ribosomal protein S6 kinase alpha-3, C-terminal kinase domain (RPS6KA3, Homo sapiens, UniProt P51812); cell-free assay, competition with immobilised ligand: 87%
CAMK1 (Homo sapiens, UniProt Q14012); cell-free assay, competition with immobilised ligand: 100%
NEK7 (Homo sapiens, UniProt Q8TDX7); cell-free assay, competition with immobilised ligand: 100%
RIOK3 (Homo sapiens, UniProt O14730); cell-free assay, competition with immobilised ligand: 92%
CAMK2B (Homo sapiens, UniProt Q13554); cell-free assay, competition with immobilised ligand: 100%
FLT3 (Homo sapiens, UniProt P36888, D835V); cell-free assay, competition with immobilised ligand: 7%
IKBKE (Homo sapiens, UniProt Q14164); binder, KINOMEscan competition binding; relative to: DMSO: 13%
FLT3 (Homo sapiens, UniProt P36888, K663Q); cell-free assay, competition with immobilised ligand: 81%
Tyrosine-protein kinase JAK3, JH1 (JAK3, Homo sapiens, UniProt P52333); cell-free assay, competition with immobilised ligand: 71%

Sample 4
Structure (SMILES): CCN(c1nc(N)c(C(=O)N=C(N)N)nc1Cl)C(C)C
Read-out: β-arrestin recruitment
Action: agonist
Technique: PRESTO-Tango
Concentration: 10 µM
Relative to: untreated
Quantity: fold over basal
GPBAR1 (Homo sapiens, UniProt Q8TDU6): 1.07 fold
GIPR (Homo sapiens, UniProt P48546): 0.59 fold
NPY4R (Homo sapiens, UniProt P50391): 0.83
P2Y purinoceptor 11 (P2RY11, Homo sapiens, UniProt Q96G91): 1.16
QRFPR (Homo sapiens, UniProt Q96P65): 0.79
GPRC5C (Homo sapiens, UniProt Q9NQ84): 0.52
CHRM2 (Homo sapiens, UniProt P08172): 1.07
HTR1B (Homo sapiens, UniProt P28222): 0.88
HCAR3 (Homo sapiens, UniProt P49019): 1.3 fold
G-protein coupled receptor 15 (Homo sapiens, UniProt P49685): 0.93

Some of these lines once more (sample 2):
CCCNC(=O)Nc1ccc(Oc2ncnc3cc(OC)c(OC)cc23)cc1Cl: 96.8%
COc1cc2c(N3CCN(C(=O)Nc4ccc(OC(C)C)cc4)CC3)ncnc2cc1OCCCN1CCCCC1: 110%
CCN(CC)CCCCN1c2ccccc2Oc2ccc(Cl)cc21: 107%
Oc1cccc(-c2nc(N3CCOCC3)c3oc4ncccc4c3n2)c1: 121%
N#C/C(=C(/N)SC1C=CC=CC1)c1cccc(C(O)c2ccncc2)c1 (stereo not shown): 92%
O=C1NC(=O)c2c1c1c3ccccc3[nH]c1c1[nH]c3cc(Br)ccc3c21: 92.2%
Clc1ccc(Nc2nnc(Cc3ccncc3)c3ccccc23)cc1: 108%
O=c1c(-c2ccc(F)cc2)c(-c2ccncc2)[nH]n1-c1ccc(Cl)cc1: 72.2%
CN(C)S(=O)(=O)c1ccc2c(c1)/C(=C/c1cc3c([nH]1)CCCC3)C(=O)N2: 99.8%
